Published values collected from several papers.
Each numbered part is a random draw from the data of one study; scales do not carry over between parts. Substitutions count along the parent as printed.

Set 1
Target: Centromere-binding protein 1, full length, His-tagged (CBF1, Saccharomyces cerevisiae, UniProt P17106, residues 1-351)
UniProt P17106, sequence (whole entry, looked up): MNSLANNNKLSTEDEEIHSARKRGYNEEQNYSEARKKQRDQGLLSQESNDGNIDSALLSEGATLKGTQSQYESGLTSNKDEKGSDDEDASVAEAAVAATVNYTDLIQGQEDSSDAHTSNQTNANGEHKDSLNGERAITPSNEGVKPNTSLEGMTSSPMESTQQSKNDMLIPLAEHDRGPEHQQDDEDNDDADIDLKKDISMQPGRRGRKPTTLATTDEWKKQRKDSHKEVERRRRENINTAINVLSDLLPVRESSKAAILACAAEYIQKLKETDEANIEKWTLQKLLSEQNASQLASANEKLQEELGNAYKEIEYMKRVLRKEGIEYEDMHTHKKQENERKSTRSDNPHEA
Method: competition protein-binding microarray
Molecule type: double-stranded DNA, one strand shown
Sample: in vitro
Concentration: 2 µM
Notes: whole 60-bp probe, lowest competitor level
Together with: Pho4 competitor, 0.05 µM
Reading: higher = stronger binding
Shared flanks, not repeated: … GTCTTGATTCGCTTGACGCTGCTG
Strand	fluorescence intensity [a.u.]
CAGTTCAACCTCACTCGCGTGCGGAGGTGTGAGGTG	62.6
CGGGGTTAAGTTTGCAATGTGGGTGGCTTGCAGCAG	85.4
TGCGCAACAACTTGGCACGTGTTTTTATGTCTAGAA	3430
AAATTACTAAGTTGGCTCGTGGGTGACGCCGTATGA	76.8
TGGAAGTGTGTGAATTTCGTGATGGAATTATTGTCA	103
CTAACGAAGGTTTTTCACGTGTGATACAAGCCAAGT	654
TTGGATCTGACTCCTCACGTGGCAAATCTAAAATTG	1490
CAAGATTGCCATTTGCACGGGTAGCGCAAGTGAGAA	81.4

Set 2
Target: Histone acetyltransferase KAT6A, winged helix 2, GST fusion (KAT6A, Homo sapiens, UniProt Q92794, residues 85-181)
Method: protein binding microarray
Molecule type: double-stranded DNA, one strand shown
Sample: in vitro
Concentration: not given
Notes: 8-mer, flanks averaged, mean of 2 arrays, mostly near background
Relative to: not given
Reading: higher = stronger binding
Target sequence (chain): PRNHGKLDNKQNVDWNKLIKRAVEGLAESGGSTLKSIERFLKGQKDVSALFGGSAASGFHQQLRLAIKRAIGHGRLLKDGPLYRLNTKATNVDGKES
Strand	E-score
GGAAGCAC	0.0962
ACACAGGC	-0.0108
CACCCGAC	0.176
AAACCTTT	-0.0722
ACCATATG	-0.316
CGGGATAG	-0.0827

Set 3
Target: CCND1, cyclin fold, Cln2 fusion (human)
Method: yeast growth competition, sequencing
Sample: yeast
Notes: weak parent motif
Relative to: not given
Reading: higher = stronger binding
Starting sequence: SAMHD1 docking peptide (human); ASKSRVQLFKDDP; partner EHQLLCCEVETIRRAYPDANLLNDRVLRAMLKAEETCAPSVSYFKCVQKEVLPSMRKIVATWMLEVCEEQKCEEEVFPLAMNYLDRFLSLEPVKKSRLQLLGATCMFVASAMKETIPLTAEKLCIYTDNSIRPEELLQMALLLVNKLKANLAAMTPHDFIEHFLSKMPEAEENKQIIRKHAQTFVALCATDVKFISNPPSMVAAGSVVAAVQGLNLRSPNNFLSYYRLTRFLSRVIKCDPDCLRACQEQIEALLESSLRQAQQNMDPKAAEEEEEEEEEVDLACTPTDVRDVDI
Substitution	normalised enrichment score
ASKSRVQLFKWDP [D11W]	0.277
ASKSRVQAFKDDP [L8A]	-0.152
ASKSYVQLFKDDP [R5Y]	0.325
ASKVRVQLFKDDP [S4V]	1.06
ASKSRVHLFKDDP [Q7H]	0.412

Further values, each from its own experiment
Substance	target	test	system	conditions	how to read	quantity	result
PhoQ, residues 284 288 289 292 302 303 SNGLAW	PhoP, residues 12 14 15 18 19 TPWLV (Escherichia coli, UniProt P23836)	Sort-seq, refers to: YFP reporter	E. coli	PhoQ-PhoP variant library, together with: 10 µM Mg2+	relative to: high Mg2+ state, higher = stronger signaling	fold induction	12.8

Some of these lines once more (set 3):
Substitution	normalised enrichment score
ASKSRVHLFKDDP [Q7H]	0.412
ASKSRVQAFKDDP [L8A]	-0.152
